Published values of several laboratories.
Compare with care: the assays were run in different laboratories. Values joined by “and” are separate records of one study, mostly repeats; a detail may differ. ± gives the spread as reported.

For `COc1ncc(-c2nc3c(n2C(C)C)[C@H](c2ccc(Cl)cc2)N(c2cc(Cl)cn(C)c2=O)C3=O)c(OC)n1`, “best overall response” read 0% (International Working Group criteria; human acute myeloid leukemia patients; oral, 20 to 30 mg, response CRi, low-dose).
For `Cn1nnc2c(C(N)=O)ncn2c1=O`, the T/C ratio was 42% (mouse subcutaneous GBM PDX sample D; subcutaneous, dose not given).
`Cc1cc([C@H]2C[C@H]3[C@@H](CF)SC(N)=N[C@@]3(c3ccc(F)cc3F)CO2)on1`: “brain Aβ40 level” 1.51 ng/g (measured: Aβx-40; wild-type mouse, brain; subcutaneous, 100 mg/kg, 5 h).
For `NC(=O)c1cnc2[nH]ccc2c1N[C@@H]1[C@@H]2CC3C[C@H]1C[C@@](O)(C3)C2`, “change from baseline” read -3.42% (flow cytometry, measured: CD4+ naive T cells; Japanese healthy subjects, peripheral blood; oral, 100 mg twice daily, day 7).
Under “progressive disease as best response”, `COc1cc2cc(-c3ccc(CC(=O)Nc4cc(C(C)(C)C(F)(F)F)no4)cn3)cnc2cc1OC` is recorded as 38% (RECIST v1.1; RET-altered advanced solid tumour patients; oral, 150 mg once daily, phase I).
For `C[C@@H]1CCC[C@H](n2cnc(-c3cc(Cl)ccc3-n3cc(Cl)nn3)cc2=O)c2cc(ccn2)-c2c(cnn2C(F)F)NC1=O`, “concentration for aPTT prolongation” read over 40 µM (rat plasma; IC1.5× aPTT, Actin FS reagent).
For `NC/C(=C\F)COc1cccc(Cn2c(=S)[nH]c(=O)c3[nH]cnc32)c1`, the fibrosis area was 7.91% and 3.81% and 6.6% and 14.3% and 8.35% and 3.84% and 5.55% (mouse, unilateral ureteral obstruction, left kidney (obstructed); dose not given).
With `C[C@H]1O[C@@H](O[C@H]2CC[C@@]3(C)[C@@H](CC[C@]4(C)[C@@H]3C=C[C@]35OC[C@@]6(CCC(C)(C)C[C@H]63)[C@@H](O)C[C@]54C)[C@]2(C)CO)[C@H](O)[C@@H](O[C@@H]2O[C@H](CO)[C@@H](O)[C@H](O)[C@H]2O)[C@H]1O` the ALT activity was 22.5 U/L and 33.1 U/L and 25 U/L and 28 U/L and 25.2 U/L and 32.8 U/L (chronic-plus-binge ethanol mice, plasma; oral, 5 mg/kg/day for 7 d, 168 h).
Under “time glucose at most 70 mg/dL”, `OC[C@H]1O[C@@H](c2ccc(F)c(Cc3cc4ccccc4s3)c2)[C@H](O)[C@@H](O)[C@@H]1O` is recorded as 3.65 ± 7.29 % change (continuous glucose monitoring; Japanese type 1 diabetes patients; 25 mg/day, day 14; relative to: baseline).
Under “log2 fold change”, `Cc1n[nH]c2ccc(-c3cc(OC[C@@H](N)Cc4ccccc4)cnc3-c3ccoc3)cc12` is recorded as -0.75 (kinase binding, competitor, MIB/MS competition, measured: NPR1; Candida albicans cell lysate; 10 µM; relative to: DMSO).
Under “difference from placebo”, `C[C@H](Oc1ccc(Br)cc1-c1ccon1)C(=O)O` is recorded as 0.14 ms (MVRC latency; human, tibialis anterior muscle; 1200 mg, SAD).
`O=C(COc1ccc(Cl)cc1)NC12CC(c3nnc([C@H]4C[C@@H](OC(F)(F)F)C4)o3)(C1)C2`: “CHAC1 mRNA change” 12.3% (healthy human, PBMC; oral, 15 mg single dose, day 1, 4 h post-dose, median, with: sodium arsenite ex vivo; relative to: baseline).
Under “tumour growth inhibition”, `C=CCn1c(=O)c2cnc(Nc3ccc(N4CCN(C)CC4)cc3)nc2n1-c1ccc2c(n1)[C@@](O)(CC)CC2` is recorded as 36.8% (OVCAR-8 xenograft, BALB/c nude mice; oral, 80 mg/kg, day 33, once daily 7 d on, 7 d off x 2).
The serotonin-induced response of `COC(=O)c1c(C)[nH]c(C)c1C(=O)c1ccccc1Cc1ccccc1` is reported as 1 and 0.851 and 1.04 and 1.05 (high-content microscopy; DRG neurons, rat; dose not given, unit not given, with: DAMGO 0.03; relative to: no DAMGO).
For `CC(C)[C@H](C(=O)Nc1ccc(C(=O)NO)cc1)c1ccccc1`, the tumour volume was 0.0236 cm³ (MRI volumetry; human, right IAC schwannoma; dose not given, day 1143 post-treatment).
`CN(C)C(=O)Oc1cccc([N+](C)(C)C)c1` gave a train-of-four ratio of 4.34 (neuromuscular block reversal; rat; dose not given, 0 (unit not given), with: cisatracurium; relative to: T1 twitch).
For `N#Cc1ccc2c(c1)[C@H]1CCCN(C(=O)c3ccc4[nH]cnc4c3)[C@H]1C2`, “change from baseline” read -1.63 mg/dL (measured: HDL; human; 80 mg once daily, day 28, adjusted mean).
For `COc1cc(Nc2ncc3c(n2)-c2ccc(Cl)cc2C(c2c(F)cccc2OC)=NC3)ccc1C(=O)O`, “median response score” read 2 (female NOD/scid mice, ALL-8 T-cell ALL xenograft; 2.6 mg/kg, 5 days weekly, score scale 0 to 10; direction not given).
With `COc1cc(F)c([C@@H]2CNC(=O)[C@H]2NC(=O)Nc2ccccc2)c(F)c1` the cardiac output was 37 ± 9 mL/min (rat, myocardial infarction; 1 mg/kg, 1008 h, 6 weeks after occlusion).
With `CS(=O)(=O)CCNCc1ccc(-c2ccc3ncnc(Nc4ccc(OCc5cccc(F)c5)c(Cl)c4)c3c2)o1` the ED50 was 186 mg/kg (tumour growth; LoVo, mouse, subcutaneous LoVo xenograft; oral, 21 days daily, colon cancer).
With `CC(c1cc2ccccc2s1)N(O)C(N)=O` (stereo not drawn) the amount was 172 ± 27 pg/mL blood (measured: 12-HEPE; human whole blood; 3 µM, with: A23187).
`[Cl-].[Cl-].[Pt+2].[Ru+2].c1ccc(-c2nc3ccccc3nc2-c2ccccn2)nc1.c1cnc2c(c1)ccc1cccnc12.c1cnc2c(c1)ccc1cccnc12`: “negative activation entropy” 174 ± 12 J/(mol·K) (chloride substitution, UV-vis kinetics; aqueous buffer; concentration not given, pH 7.2, second substitution step, with: L-methionine).
For `C[C@@H](O)CCOC(=O)C[C@@H](C)O`, the metabolite level was 6.64 ± 0.32 µmol/L (measured: Glx; human, plasma; 60 min, log2-transformed values).
Under “stopping or switching”, `O=C1CCc2ccc(OCCCCN3CCN(c4cccc(Cl)c4Cl)CC3)cc2N1` is recorded as 43% (patients CYP2D6 NM; 6 months).
For `CSCCNc1nc(SCCC(F)(F)F)nc2c1ncn2[C@@H]1O[C@H](COP(=O)(O)OP(=O)(O)C(Cl)(Cl)P(=O)(O)O)[C@@H](O)[C@H]1O`, “patients with inhibition above threshold” read 7.5% (platelet aggregation, light transmission aggregometry; human patients, platelet-rich plasma; dose not given, 30 min, inhibition threshold 90%, with: ADP 5 µM).
`CC(C)(C)c1sc2ncnc(Oc3c(F)cccc3OC(F)(F)F)c2c1-c1ccc(Cl)cc1`: “thermal paw withdrawal latency” “increased” (naive humanized MrgprX1 mice; oral, 16 mg/kg; relative to: predrug baseline).
For `CN(C(=O)n1cnc(-c2ccc[n+]([O-])c2)c1)C1CCCCC1`, the AUC(0-tau) was 274 ng·h/mL (measured: OEA; human, plasma; 5 mg once daily, day 10).
`N#Cc1ccn2c(-c3ccncc3)c(-c3ccc(F)cc3)nc2c1`: “log2 fold change” -0.223 (kinase binding, competitor, MIB/MS competition, measured: PBS2; Candida albicans cell lysate; 1 µM; relative to: DMSO).
`CN[C@@H](C)C(=O)N[C@H]1CN(S(=O)(=O)c2cccc(S(=O)(=O)N3CC[C@H]4CC[C@@H](C(=O)NC(c5ccccc5)c5ccccc5)N4C(=O)[C@@H](NC(=O)[C@H](C)NC)C3)c2)CC[C@H]2CC[C@@H](C(=O)NC(c3ccccc3)c3ccccc3)N2C1=O` has a response rate of 100% (mouse pancreatic cancer PDX; dose not given, day 33, partial response plus stable disease, with: AG).
`C[C@@H](NC(=O)N1C(=O)[C@H](Cc2ccnc(N)c2)[C@H]1C(=O)O)C1CCCCC1`: “time to ACT Emax” 60 h (human; iv infusion, 0.3 mg/kg/h, 24 h).
For `O=C1N(Cc2ccccc2Cl)c2ccccc2C12NN=C(c1ccccc1)S2` (stereo not drawn), the T/C was 77% (MDA-MB-468 xenograft, mouse; intravenous, 1296 mg/kg twice daily, subcutaneous xenograft; relative to: vehicle).
`OC(CCN1CCCCC1)(c1ccccc1)C1CC2C=CC1C2` (stereo not drawn): “EEG Alpha1-power Fz-Cz” 2.1 µV² (resting-state EEG; healthy elderly humans; oral, 4 mg, eyes open, LS mean).
The EC50 of `CC1(C)CCC(CN2CCN(c3ccc(C(=O)NS(=O)(=O)c4ccc(NCC5CCOCC5)c([N+](=O)[O-])c4)c(Oc4cnc5[nH]ccc5c4)c3)CC2)=C(c2ccc(Cl)cc2)C1` is reported as 244 nM (cell kill, PI exclusion flow cytometry; normal CD3+ T lymphocytes, human, peripheral blood; 24 h).
`NCC(=O)Nc1cncc(-c2nn3c(=O)cc(N4CCNCC4)nc3s2)c1` has an inhibition of 8% (ADP-induced platelet aggregation, light transmission aggregometry; human, stable CAD on aspirin, platelets ex vivo; subcutaneous, 0.075 mg/kg, 240 min post-dose, with: ADP 20 µM).
With `CN[C@@H]1COc2c(S(=O)(=O)NC(=O)Nc3c4c(cc5c3CCC5)CCC4)cnn2C1` the inhibition was 95.4% (measured: IL-1β; human participants, whole blood ex vivo; 300 mg twice daily, multiple doses, 12 h, with: LPS/ATP; relative to: baseline).
`CC(=O)Oc1cc2c(s1)CCN(C(C(=O)C1CC1)c1ccccc1F)C2` (stereo not drawn) — result for “patients with IPA above 80%”: 0% (light transmittance aggregometry; human patients, platelet-rich plasma; dose not given, 1 h, with: ADP 20 µM; relative to: patients).
`CCO[C@H]1CCN(Cc2c(OC)cc(C)c3[nH]ccc23)[C@H](c2ccc(C(=O)O)cc2)C1` — result for “PNH red cell clone size”: 54.9% (measured: PNH-type erythrocytes; PNH patients, blood; 25 mg/100 mg, week 2, mean).
With `O[C@H]1CCCN[C@@H]1CCCn1cnc2c(Cl)c(Cl)ccc21` the AUC(0-tau) was 147 ng·h/mL (ELISA, measured: Pro-C3; healthy human volunteers, serum; intraduodenal, 200 mg twice daily, day 14, multiple ascending dose).
With `CCCCCCCCCCCCCCCC(=O)NCCOC(=O)C[C@@H](CN)CC(C)C` the ED50 was 5.54 mg/kg (mechanical withdrawal threshold; mouse, paclitaxel neuropathic pain; oral).

Excerpt of the above:
`CC(C)(C)c1sc2ncnc(Oc3c(F)cccc3OC(F)(F)F)c2c1-c1ccc(Cl)cc1`: “thermal paw withdrawal latency” “increased” (naive humanized MrgprX1 mice; oral, 16 mg/kg; relative to: predrug baseline).
For `COc1cc(Nc2ncc3c(n2)-c2ccc(Cl)cc2C(c2c(F)cccc2OC)=NC3)ccc1C(=O)O`, “median response score” read 2 (female NOD/scid mice, ALL-8 T-cell ALL xenograft; 2.6 mg/kg, 5 days weekly, score scale 0 to 10; direction not given).
For `O=C1N(Cc2ccccc2Cl)c2ccccc2C12NN=C(c1ccccc1)S2` (stereo not drawn), the T/C was 77% (MDA-MB-468 xenograft, mouse; intravenous, 1296 mg/kg twice daily, subcutaneous xenograft; relative to: vehicle).
For `CN(C(=O)n1cnc(-c2ccc[n+]([O-])c2)c1)C1CCCCC1`, the AUC(0-tau) was 274 ng·h/mL (measured: OEA; human, plasma; 5 mg once daily, day 10).
